{"data": "Measurements collected from several papers", "note": "A part holds a random share of what one study measured. Changes are numbered by the printed parent chain."}
{"data": "Set 1", "target": "Prothrombin, mature alpha-thrombin (F2, Homo sapiens, UniProt P00734)", "technique": "aptamer microarray, sandwich", "form": "DNA with 2'F-ANA", "medium": "in vitro", "tested at": "200 nM", "notes": "whole 15-mer aptamer, many near background", "with": "Cy3 exosite-II aptamer, 400 nM", "direction": "higher = stronger binding", "strand": "GGTTGGTGTGGTTGG"}
{"Modification": "2'F-ANA at 1 2 4 8 10 11 12 13", "mean fluorescence intensity [a.u.]": 61.8}
{"Modification": "2'F-ANA at 1 2 3 4 7 11 13 14 15", "mean fluorescence intensity [a.u.]": 71.2}
{"Modification": "2'F-ANA at 1 3 4 5 6 9 13 15", "mean fluorescence intensity [a.u.]": 51.1}
{"Modification": "2'F-ANA at 2 3 5 7 8 9 10 11 12 13 14", "mean fluorescence intensity [a.u.]": 71.2}
{"Modification": "2'F-ANA at 8 11 14 15", "mean fluorescence intensity [a.u.]": 199}
{"Modification": "2'F-ANA at 2 3 4 5 6 7 8 9 10 12 13 14 15", "mean fluorescence intensity [a.u.]": 55.4}
{"Modification": "2'F-ANA at 1 2 3 7 14 15", "mean fluorescence intensity [a.u.]": 85.1}
{"Modification": "2'F-ANA at 1 6 7 8 9 10 12 14 15", "mean fluorescence intensity [a.u.]": 51.2}
{"Modification": "2'F-ANA at 1 5 7 10 13", "mean fluorescence intensity [a.u.]": 48.8}
{"Modification": "2'F-ANA at 2 3 6 11 12 14 15", "mean fluorescence intensity [a.u.]": 345}
{"Modification": "2'F-ANA at 2 4 5 6 8 9 12", "mean fluorescence intensity [a.u.]": 179}
{"Modification": "2'F-ANA at 1 2 6 10", "mean fluorescence intensity [a.u.]": 53.1}
{"Modification": "2'F-ANA at 1 3 4 9 11 14", "mean fluorescence intensity [a.u.]": 61}
{"Modification": "2'F-ANA at 1 2 3 4 6 8 15", "mean fluorescence intensity [a.u.]": 179}
{"Modification": "2'F-ANA at 5 7 11", "mean fluorescence intensity [a.u.]": 68.2}
{"Modification": "2'F-ANA at 2 3 4 6 7 8 10 11 13", "mean fluorescence intensity [a.u.]": 177}
{"Modification": "2'F-ANA at 4 5 8 9 11 12", "mean fluorescence intensity [a.u.]": 130}
{"Modification": "2'F-ANA at 2 3 4 5 7 10 12 13", "mean fluorescence intensity [a.u.]": 54}
{"Modification": "2'F-ANA at 1 2 4 7 8 10 11 12 13 14 15", "mean fluorescence intensity [a.u.]": 67.4}
{"Modification": "2'F-ANA at 1 2 3 7 10 12 15", "mean fluorescence intensity [a.u.]": 99}
{"data": "Set 2", "target": "CCNE1, cyclin fold, Cln2 fusion (human)", "technique": "yeast growth competition, sequencing", "medium": "yeast", "notes": "weak parent motif", "reference": "not given", "direction": "higher = stronger binding", "parent": "MICAL3 docking peptide (human); LQLRRQLSFSEDS"}
{"Substitution": "L3A", "normalised enrichment score": 5.37}
{"Substitution": "L7V", "normalised enrichment score": 0.26}
{"Substitution": "E11Q", "normalised enrichment score": 0.942}
{"Substitution": "S10P", "normalised enrichment score": 0.848}
{"Substitution": "L3N", "normalised enrichment score": -0.0182}
{"Substitution": "D12C", "normalised enrichment score": 2.72}
{"Substitution": "S8Q", "normalised enrichment score": 0.536}
{"Substitution": "S8L", "normalised enrichment score": 0.699}
{"Substitution": "D12Y", "normalised enrichment score": 0.722}
{"Substitution": "L3T", "normalised enrichment score": 4.31}
{"Substitution": "F9G", "normalised enrichment score": -0.0742}
{"Substitution": "D12A", "normalised enrichment score": 1.3}
{"Substitution": "Q6W", "normalised enrichment score": 0.838}
{"Substitution": "Q2C", "normalised enrichment score": 1.57}
{"Substitution": "Q6P", "normalised enrichment score": 0.176}
{"Substitution": "R5T", "normalised enrichment score": -0.109}
{"Substitution": "E11H", "normalised enrichment score": 0.173}
{"Substitution": "F9H", "normalised enrichment score": -0.38}
{"Substitution": "L7P", "normalised enrichment score": -0.0636}
{"Substitution": "L7A", "normalised enrichment score": 0.219}
{"Substitution": "L7C", "normalised enrichment score": -0.208}
{"Substitution": "R5E", "normalised enrichment score": 0.151}
{"Substitution": "S10G", "normalised enrichment score": 1.57}
{"Substitution": "Q6A", "normalised enrichment score": 1.11}
{"Substitution": "R5M", "normalised enrichment score": 0.166}
{"data": "Set 3", "target": "RNA binding protein fox-1 homolog 2, RRM domain, GST-SBP tag (RBFOX2, Homo sapiens, UniProt O43251-10, residues 100-194)", "technique": "RNA Bind-n-Seq", "form": "RNA", "medium": "in vitro", "tested at": "365 nM", "notes": "natural RNA segment, single round, ends assumed", "reference": "no-protein control", "direction": "higher = stronger binding", "shared flanks, not repeated": "GGGAGUUCUACAGUCCGACGAUC … UGGAAUUCUCGGGUGCCAA", "Target sequence (chain)": "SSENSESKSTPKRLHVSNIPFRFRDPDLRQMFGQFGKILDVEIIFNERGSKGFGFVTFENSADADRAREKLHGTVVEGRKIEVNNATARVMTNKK"}
{"Strand": "AGGCCGCCCAGCUGCUGUGACUUAGAUAAUGAAAAGCUUCAACUCACCACCGUCAUUUUUUUUUCUUUUUCCUUUUUGUGCGUGUGUGGUUUUUAAUCUGUAUAUACUGU", "RBNS enrichment (R)": 0.643}
{"Strand": "CGACAGGGCGUGCCUCUCCCACUGCAGCCCCUGUGGUGGUGGCUGCCUAAUUCAGUUCCAGCUCUCACUCUACUCACCCAUGCCUCUAGCUGCACAAUGUUAUGGCACUA", "RBNS enrichment (R)": 1.47}
{"Strand": "GUCAGUGUGCAGAGCUCCUUUCUGGCCACACCUCUGUGAACCCCUAUAUUUUCUGGGACUGGAAGGAAUGAAUGCCCAUGUCCUGUCUACUUCUGUGUCUGUGCUAUGUG", "RBNS enrichment (R)": 4.81}
{"Strand": "CACAGUCUGGAGGCGGCUGCUUUUGUACCUUCCUGCCUGCUACUAAUUCAGGGUCUCAUUUGGAACAUUUUUCCUUUGGGUAGUGGUCAGGAACUGGUGUAAGUCCUCCA", "RBNS enrichment (R)": 0.537}
{"Strand": "UUAGCUAUCUGCCUCUUUCCUUUAGCUGGGAAAGUGAGAGCUGGCAUACUAUGCAGUUUUUAUGUUUUCCAUAGUAAGUCAGAAAAUGCCUCCUAUUUCUGGCAUCAGAA", "RBNS enrichment (R)": 0.399}
{"Strand": "UAGUUUCAGCGUUAGAUAAAGUUUUUCCACCAUACAUCUUUAGGUGCAUUCAUCUUUAGGUGACUGAAUGUUAAGAAAUCUGUGUGCAUAGUUACUAAGUUUUUAUGAAC", "RBNS enrichment (R)": 0.33}
{"Strand": "UUCUCUUAGAUCACAUUUAGUAGCAUAACUGUAGGGACUAUUAGAGAUGGCAUCUCAUCGAUGAGAGAGAAUCACAAUCAGAAUGGAAGCACUUUGAGUAUCUGAAGAGU", "RBNS enrichment (R)": 0.728}
{"Strand": "AAAGUAGACAUUUAUGUUCUAAUUAAUAUGAUUACAGAGAAGGCUUUUUCUCAGGUCAGGCUUUUCAUGAAAGUAUUUUGAGAACAAUGAAUUGCAAUAACCAGCUUCAC", "RBNS enrichment (R)": 0.444}
{"data": "Set 4", "target": "Sal-like protein 4, full length isoform A (SALL4, Homo sapiens, UniProt Q9UJQ4, residues 1-1053)", "technique": "universal PBM", "form": "double-stranded DNA, one strand shown", "medium": "in vitro", "tested at": "600 nM", "notes": "8-mer, flanks averaged, mean of replicates", "direction": "higher = stronger binding", "chain of UniProt Q9UJQ4 (whole entry, looked up)": "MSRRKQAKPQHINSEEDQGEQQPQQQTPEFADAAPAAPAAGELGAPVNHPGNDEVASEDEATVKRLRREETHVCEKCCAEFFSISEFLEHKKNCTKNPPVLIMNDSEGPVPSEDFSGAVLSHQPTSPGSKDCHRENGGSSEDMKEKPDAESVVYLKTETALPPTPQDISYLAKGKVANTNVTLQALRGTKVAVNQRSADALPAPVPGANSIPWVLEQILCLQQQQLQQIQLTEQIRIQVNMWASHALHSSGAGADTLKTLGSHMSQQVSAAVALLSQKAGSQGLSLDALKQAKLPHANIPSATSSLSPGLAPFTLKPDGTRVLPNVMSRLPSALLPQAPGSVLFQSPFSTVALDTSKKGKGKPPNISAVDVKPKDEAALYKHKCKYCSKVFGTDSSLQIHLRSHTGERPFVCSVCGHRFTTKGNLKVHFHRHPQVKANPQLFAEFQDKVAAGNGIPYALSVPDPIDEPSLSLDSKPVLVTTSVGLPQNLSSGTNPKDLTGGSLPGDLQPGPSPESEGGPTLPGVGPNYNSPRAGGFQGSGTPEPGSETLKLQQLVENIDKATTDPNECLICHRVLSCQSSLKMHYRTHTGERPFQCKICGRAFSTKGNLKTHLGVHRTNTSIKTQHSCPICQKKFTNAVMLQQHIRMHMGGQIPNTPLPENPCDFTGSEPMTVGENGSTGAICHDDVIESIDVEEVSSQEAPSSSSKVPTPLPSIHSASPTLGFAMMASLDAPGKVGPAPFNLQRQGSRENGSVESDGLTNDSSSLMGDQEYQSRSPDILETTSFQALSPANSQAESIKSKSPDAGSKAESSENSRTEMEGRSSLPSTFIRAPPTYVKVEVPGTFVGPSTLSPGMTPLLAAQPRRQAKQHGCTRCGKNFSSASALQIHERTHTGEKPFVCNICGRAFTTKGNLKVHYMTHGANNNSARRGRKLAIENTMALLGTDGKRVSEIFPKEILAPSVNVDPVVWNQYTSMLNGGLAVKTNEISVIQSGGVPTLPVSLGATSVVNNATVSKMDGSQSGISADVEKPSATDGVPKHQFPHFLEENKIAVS"}
{"Strand": "AAGTATTA", "E-score": 0.343}
{"Strand": "TCATCAAA", "E-score": 0.149}
{"Strand": "AGACTGAG", "E-score": -0.11}
{"Strand": "GACACAGA", "E-score": -0.00537}
{"Strand": "CAGAGGAG", "E-score": -0.117}
{"Strand": "CCTCATAG", "E-score": -0.0275}
{"Strand": "AAGTTGGT", "E-score": 0.0551}
{"Strand": "CGCCATCA", "E-score": -0.095}
{"Strand": "CCTCGAAA", "E-score": 0.0365}
{"Strand": "AGTGTATG", "E-score": 0.167}
{"Strand": "GGCCCTGA", "E-score": -0.194}
{"Strand": "AGTCCTGA", "E-score": -0.0463}
{"Strand": "CCTAGACA", "E-score": -0.152}
{"Strand": "CCACAAAG", "E-score": 0.0196}
{"Strand": "CGGATCAA", "E-score": 0.0481}
{"Strand": "AATCCAGC", "E-score": -0.228}
{"Strand": "ATAAAAGG", "E-score": 0.27}
{"Strand": "ATTACATG", "E-score": 0.318}
{"Strand": "ATTACGCG", "E-score": 0.0825}
{"Strand": "GAGGCCAA", "E-score": -0.176}
{"Strand": "CATTTAAA", "E-score": 0.259}
{"Strand": "ACGGTTCA", "E-score": -0.159}
{"Strand": "CCAGTCTC", "E-score": -0.288}
{"Strand": "AGCTTAAG", "E-score": 0.0483}
{"Strand": "AACGTAGG", "E-score": -0.136}
{"note": "For quick reference, copied from above (set 2):"}
{"Substitution": "D12A", "normalised enrichment score": 1.3}
{"Substitution": "Q6W", "normalised enrichment score": 0.838}
{"Substitution": "Q2C", "normalised enrichment score": 1.57}
{"Substitution": "Q6P", "normalised enrichment score": 0.176}
{"Substitution": "R5T", "normalised enrichment score": -0.109}
{"Substitution": "E11H", "normalised enrichment score": 0.173}
{"Substitution": "F9H", "normalised enrichment score": -0.38}
{"Substitution": "L7P", "normalised enrichment score": -0.0636}
{"Substitution": "L7A", "normalised enrichment score": 0.219}
